Assay results collected from several papers.
Every numbered part comes from another study and shows a few of its results, in no order.
UniProt Q9Y5N1, sequence (whole entry, looked up): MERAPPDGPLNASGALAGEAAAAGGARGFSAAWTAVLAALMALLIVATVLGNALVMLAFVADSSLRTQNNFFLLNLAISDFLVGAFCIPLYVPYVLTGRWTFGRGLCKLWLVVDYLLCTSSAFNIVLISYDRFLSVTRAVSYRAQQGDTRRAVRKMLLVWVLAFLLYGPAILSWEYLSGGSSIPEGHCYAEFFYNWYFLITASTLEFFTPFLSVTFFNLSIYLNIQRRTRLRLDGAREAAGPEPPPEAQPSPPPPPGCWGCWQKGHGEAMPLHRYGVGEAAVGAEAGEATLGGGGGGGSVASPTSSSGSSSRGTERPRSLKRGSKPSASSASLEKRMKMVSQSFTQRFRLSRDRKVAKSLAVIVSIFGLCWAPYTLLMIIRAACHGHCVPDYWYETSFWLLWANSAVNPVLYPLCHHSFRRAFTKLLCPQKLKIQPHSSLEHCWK
UniProt Q9H3N8, sequence (whole entry, looked up): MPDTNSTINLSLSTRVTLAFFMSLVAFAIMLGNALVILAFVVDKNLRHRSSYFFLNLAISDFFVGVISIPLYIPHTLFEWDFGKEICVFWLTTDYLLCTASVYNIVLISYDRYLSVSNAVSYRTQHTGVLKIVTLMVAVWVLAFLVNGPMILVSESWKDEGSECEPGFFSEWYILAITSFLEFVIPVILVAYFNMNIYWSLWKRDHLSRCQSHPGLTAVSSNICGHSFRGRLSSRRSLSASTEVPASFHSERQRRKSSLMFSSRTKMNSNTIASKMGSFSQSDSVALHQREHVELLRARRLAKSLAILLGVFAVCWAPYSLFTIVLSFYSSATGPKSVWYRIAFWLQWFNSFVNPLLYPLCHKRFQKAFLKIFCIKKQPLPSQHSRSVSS
UniProt P08172, sequence (whole entry, looked up): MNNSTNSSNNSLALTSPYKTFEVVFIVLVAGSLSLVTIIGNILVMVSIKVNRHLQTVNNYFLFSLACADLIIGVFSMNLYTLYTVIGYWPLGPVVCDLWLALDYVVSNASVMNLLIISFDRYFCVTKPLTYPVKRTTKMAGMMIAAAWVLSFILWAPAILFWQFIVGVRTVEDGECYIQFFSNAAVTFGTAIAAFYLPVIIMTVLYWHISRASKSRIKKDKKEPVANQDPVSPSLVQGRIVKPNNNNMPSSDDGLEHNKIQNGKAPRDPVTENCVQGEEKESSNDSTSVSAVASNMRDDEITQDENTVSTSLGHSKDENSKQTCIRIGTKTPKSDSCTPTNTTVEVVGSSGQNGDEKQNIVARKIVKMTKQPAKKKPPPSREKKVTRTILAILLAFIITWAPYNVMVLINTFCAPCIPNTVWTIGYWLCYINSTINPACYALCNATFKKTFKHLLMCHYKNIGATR
UniProt P35348, sequence (whole entry, looked up): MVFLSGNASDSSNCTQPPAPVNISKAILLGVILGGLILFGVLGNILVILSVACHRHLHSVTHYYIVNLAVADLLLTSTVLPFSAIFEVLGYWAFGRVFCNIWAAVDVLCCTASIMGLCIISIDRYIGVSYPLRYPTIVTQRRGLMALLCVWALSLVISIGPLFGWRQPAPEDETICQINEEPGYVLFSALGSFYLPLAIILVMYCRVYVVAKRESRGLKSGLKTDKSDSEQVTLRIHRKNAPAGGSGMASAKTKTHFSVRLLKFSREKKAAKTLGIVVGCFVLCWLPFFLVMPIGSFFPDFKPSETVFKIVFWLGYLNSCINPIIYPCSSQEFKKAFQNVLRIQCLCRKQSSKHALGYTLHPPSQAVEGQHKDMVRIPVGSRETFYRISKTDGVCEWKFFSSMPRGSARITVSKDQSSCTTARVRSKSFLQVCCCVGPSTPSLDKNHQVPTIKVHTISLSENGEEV
UniProt Q99720, sequence (whole entry, looked up): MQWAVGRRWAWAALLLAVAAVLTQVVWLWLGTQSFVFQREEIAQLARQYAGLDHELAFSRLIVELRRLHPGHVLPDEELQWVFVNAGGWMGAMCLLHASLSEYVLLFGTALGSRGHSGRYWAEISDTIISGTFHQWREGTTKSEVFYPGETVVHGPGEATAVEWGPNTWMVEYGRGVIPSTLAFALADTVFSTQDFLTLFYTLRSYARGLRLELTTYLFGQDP
UniProt P25021, sequence (whole entry, looked up): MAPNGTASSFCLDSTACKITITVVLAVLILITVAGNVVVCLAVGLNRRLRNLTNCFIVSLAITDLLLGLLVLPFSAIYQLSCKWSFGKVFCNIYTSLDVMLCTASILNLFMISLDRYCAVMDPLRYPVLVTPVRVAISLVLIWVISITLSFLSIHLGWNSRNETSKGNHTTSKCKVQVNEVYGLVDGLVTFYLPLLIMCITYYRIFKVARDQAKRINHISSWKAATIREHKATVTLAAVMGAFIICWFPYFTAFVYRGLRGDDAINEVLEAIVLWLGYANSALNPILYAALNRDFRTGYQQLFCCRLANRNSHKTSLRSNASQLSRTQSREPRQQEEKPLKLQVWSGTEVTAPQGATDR
UniProt P35368, sequence (whole entry, looked up): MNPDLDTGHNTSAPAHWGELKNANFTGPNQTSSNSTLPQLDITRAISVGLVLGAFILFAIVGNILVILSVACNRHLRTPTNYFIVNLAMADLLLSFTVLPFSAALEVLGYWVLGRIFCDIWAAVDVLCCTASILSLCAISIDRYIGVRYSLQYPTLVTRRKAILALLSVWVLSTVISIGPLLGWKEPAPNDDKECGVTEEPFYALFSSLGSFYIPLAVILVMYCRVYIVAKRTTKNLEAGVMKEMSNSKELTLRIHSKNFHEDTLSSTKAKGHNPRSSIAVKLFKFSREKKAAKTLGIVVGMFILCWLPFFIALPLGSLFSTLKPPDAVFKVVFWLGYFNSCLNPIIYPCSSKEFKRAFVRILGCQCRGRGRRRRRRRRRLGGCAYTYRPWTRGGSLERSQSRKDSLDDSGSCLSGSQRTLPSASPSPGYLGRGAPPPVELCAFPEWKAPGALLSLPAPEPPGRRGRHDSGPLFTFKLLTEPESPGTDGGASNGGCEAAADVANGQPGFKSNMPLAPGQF
UniProt P41595, sequence (whole entry, looked up): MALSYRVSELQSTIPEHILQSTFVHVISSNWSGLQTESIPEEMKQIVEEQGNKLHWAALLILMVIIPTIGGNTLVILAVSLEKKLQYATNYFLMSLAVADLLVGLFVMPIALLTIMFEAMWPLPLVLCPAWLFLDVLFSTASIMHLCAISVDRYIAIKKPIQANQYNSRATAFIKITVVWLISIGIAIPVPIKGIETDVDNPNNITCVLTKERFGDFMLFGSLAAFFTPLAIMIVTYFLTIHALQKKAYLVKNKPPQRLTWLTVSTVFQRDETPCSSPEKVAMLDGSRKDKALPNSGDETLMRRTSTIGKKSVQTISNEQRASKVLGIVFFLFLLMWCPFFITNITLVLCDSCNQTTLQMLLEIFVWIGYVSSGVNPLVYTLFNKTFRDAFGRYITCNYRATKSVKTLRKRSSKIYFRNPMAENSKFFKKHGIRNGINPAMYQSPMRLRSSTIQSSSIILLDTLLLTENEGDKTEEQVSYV
UniProt P21917, sequence (whole entry, looked up): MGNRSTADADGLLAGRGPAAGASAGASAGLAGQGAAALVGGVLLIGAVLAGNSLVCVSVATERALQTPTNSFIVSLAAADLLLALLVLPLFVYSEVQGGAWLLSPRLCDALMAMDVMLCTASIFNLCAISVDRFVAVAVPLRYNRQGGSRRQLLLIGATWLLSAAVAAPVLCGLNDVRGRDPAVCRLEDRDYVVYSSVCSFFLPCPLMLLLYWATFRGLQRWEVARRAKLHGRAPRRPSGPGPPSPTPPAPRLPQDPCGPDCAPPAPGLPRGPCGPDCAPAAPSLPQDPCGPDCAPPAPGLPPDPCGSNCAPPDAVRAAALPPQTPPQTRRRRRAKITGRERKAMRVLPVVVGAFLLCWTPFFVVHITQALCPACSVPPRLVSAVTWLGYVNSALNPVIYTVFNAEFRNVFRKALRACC
UniProt P07550, sequence (whole entry, looked up): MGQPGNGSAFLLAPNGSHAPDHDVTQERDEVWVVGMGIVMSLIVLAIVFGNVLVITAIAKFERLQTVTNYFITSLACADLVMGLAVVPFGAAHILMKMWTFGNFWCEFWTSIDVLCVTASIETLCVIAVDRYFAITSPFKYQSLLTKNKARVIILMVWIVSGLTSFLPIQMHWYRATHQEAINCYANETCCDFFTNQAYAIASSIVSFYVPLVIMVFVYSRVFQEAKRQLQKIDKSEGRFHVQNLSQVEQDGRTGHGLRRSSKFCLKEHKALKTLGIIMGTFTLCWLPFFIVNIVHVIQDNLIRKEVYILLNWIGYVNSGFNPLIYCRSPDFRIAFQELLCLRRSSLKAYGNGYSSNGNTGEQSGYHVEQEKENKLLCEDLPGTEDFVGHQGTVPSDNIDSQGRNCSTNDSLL
UniProt Q5BJF2, sequence (whole entry, looked up): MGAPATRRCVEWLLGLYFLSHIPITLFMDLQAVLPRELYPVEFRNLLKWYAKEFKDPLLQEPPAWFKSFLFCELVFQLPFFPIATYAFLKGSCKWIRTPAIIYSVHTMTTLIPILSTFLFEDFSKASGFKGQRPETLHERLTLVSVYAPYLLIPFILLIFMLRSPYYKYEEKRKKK

Set 1
Cell line: mouse MPNST tumor cells
Method: high-content immunofluorescence imaging
Refers to: nuclear SOX9
Tested at: 10 µM
Time: 12 h
Notes: mean of 2 replicates
Reference: DMSO control
Reading: higher = more nuclear SOX9
SMILES	nuclear SOX9 intensity
Cn1cc(-c2ccc3nnc(Sc4ccc5ncccc5c4)n3n2)cn1	40.2 % of DMSO
CCC1NC(=O)c2cc(S(N)(=O)=O)c(Cl)cc2N1 (stereo not drawn)	97.1 % of DMSO
O=C(NCCN1CCC(n2c(=O)[nH]c3ccccc32)CC1)c1cc2cc(F)ccc2[nH]1	210 % of DMSO
Cc1oc(-c2ccccc2)nc1CCOc1ccc(CC2SC(=O)NC2=O)c2sccc12 (stereo not drawn)	117 % of DMSO
NC[C@H]1O[C@H](O[C@H]2[C@H](O)[C@@H](O[C@H]3O[C@H](CO)[C@@H](O)[C@H](N)[C@H]3O)[C@H](N)C[C@@H]2N)[C@H](N)C[C@@H]1O	107 % of DMSO
CC(C)(Oc1ccc(CCNC(=O)c2ccc(Cl)cc2)cc1)C(=O)O	104 % of DMSO
CCOc1ccc(Cc2nccc3cc(OCC)c(OCC)cc23)cc1OCC	99.3 % of DMSO
CNCCCC12CCC(c3ccccc31)c1ccccc12	210 % of DMSO
Cc1cc(F)c(Nc2ncnc3cc(OCc4ccccc4)ccc23)cc1O	121 % of DMSO
O=C(Nc1c(Cl)cncc1Cl)c1ccc(OC(F)F)c(OCC2CC2)c1	101 % of DMSO
CC(C)N(CCCCOCC(=O)NS(C)(=O)=O)c1cnc(-c2ccccc2)c(-c2ccccc2)n1	88.8 % of DMSO
CC(C)S(=O)(=O)N[C@H]1Cc2ccc(-c3ccc(F)nc3)cc2C1	98.7 % of DMSO
CN(C)[C@H]1CN(C2CCc3cccc(F)c32)C[C@@H]1c1ccc(N2CCN(S(C)(=O)=O)CC2)cc1 (stereo partly drawn)	141 % of DMSO
O=C(O)C1CN(Cc2ccc(-c3nc4cc(Cc5ccccc5F)ccc4s3)c(F)c2)C1	98.1 % of DMSO
CC(=O)O[C@]1(C(C)=O)CC[C@H]2[C@@H]3C=C(Cl)C4=CC(=O)[C@@H]5C[C@@H]5[C@]4(C)[C@H]3CC[C@@]21C	97.4 % of DMSO

Set 2
Target: Ribosomal protein S6 kinase beta-2 (RPS6KB2, Homo sapiens, UniProt Q9UBS0)
UniProt Q9UBS0, sequence (whole entry, looked up): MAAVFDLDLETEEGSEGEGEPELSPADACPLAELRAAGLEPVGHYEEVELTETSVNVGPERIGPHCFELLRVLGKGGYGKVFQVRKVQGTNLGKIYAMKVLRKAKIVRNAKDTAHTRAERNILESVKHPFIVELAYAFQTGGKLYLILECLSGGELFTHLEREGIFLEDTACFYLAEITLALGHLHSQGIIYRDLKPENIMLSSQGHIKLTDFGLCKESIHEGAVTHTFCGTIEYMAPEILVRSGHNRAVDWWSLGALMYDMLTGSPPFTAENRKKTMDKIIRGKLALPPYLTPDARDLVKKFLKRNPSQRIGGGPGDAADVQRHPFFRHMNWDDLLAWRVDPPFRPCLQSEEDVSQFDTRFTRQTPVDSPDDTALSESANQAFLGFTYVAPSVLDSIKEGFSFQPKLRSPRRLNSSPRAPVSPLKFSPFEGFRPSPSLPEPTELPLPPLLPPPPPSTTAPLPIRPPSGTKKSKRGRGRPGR
Read-out: enzyme activity
Action: inhibitor
Tested at: 0.5 µM
Reference: control
SMILES	remaining activity
c1ccc(-c2n[nH]c3c2oc2ccccc23)cc1	99.8%
CCCCc1c(-c2ccc(OC)cc2)[nH]c2nccnc12	99.7%
O=C1Cc2c([nH]c3ccc(Br)cc23)-c2ccccc2N1	99.4%
O=C1NC(=O)c2c1c1c3ccccc3[nH]c1n1cncc21	74.7%
CN(C)S(=O)(=O)c1ccc2c(c1)/C(=C/c1cc3c([nH]1)CCCC3)C(=O)N2	92.6%
O=C1Nc2ccc(Br)cc2/C1=C/c1cc2c([nH]1)CCCC2	102%
O=c1cc(N2CCOCC2)oc2c(-c3ccccc3)cccc12	94.9%
O=Nc1c(-c2c(O)[nH]c3cc(Br)ccc23)[nH]c2ccccc12	100%
O=C(c1cc2cc(O)ccc2[nH]1)c1cc2cc(O)ccc2[nH]1	102%
c1ccc2c(-c3ccncc3)c[nH]c2c1	97.8%
N#Cc1cnc2cnc(NCc3cccnc3)cc2c1Nc1ccc(F)c(Cl)c1	99.5%

Set 3
Host: human
Medium: microsomes or S9
Tested at: 2 µM
Time: 0.5 h
Structure (SMILES)	remaining compound
CCC(Oc1cc(C)ccc1Cl)C(=O)Nc1cccnc1 (stereo not drawn)	8.08%
CCOc1cc(=O)n2c(c1C(=O)NCCCOC(C)C)CCCCC2	75%
O=C(Nc1ccc(-n2cnc3ccccc32)cc1)c1nc2ncccn2n1	73.8%
COc1ccc2c(cc(C(=O)Nc3ccccc3OCC3CCCCO3)n2C)c1OC (stereo not drawn)	18%
O=c1cc(-c2ccccc2)oc2ccccc12	8.1%
CCCc1cc(N2CCN(C(=O)c3ccc(C#N)cc3F)CC2)nc2nnc(CC)n12	94.5%
CNC(=O)c1nnn2c1[nH]c(=O)c1c(C)c(C)sc12	84.4%
CNC(=O)Nc1ccc(C)n(CC(=O)NCCC(C)C)c1=O	> 100%
CCS(=O)(=O)Nc1cccc(-c2cc(=O)n(-c3ccc(F)c(Cl)c3)nc2C)c1	> 100%
CCCn1c2c(c(O)c(C(=O)OCC)c1=O)CCCC2	64.9%
Cc1ncc(-c2onc(C)c2C)c(-c2ccco2)n1	53.3%

Set 4
Compound: CC(C)(C)OC(=O)N1CCCC1CNC1CCC(c2cc(F)ccc2F)(S(=O)(=O)c2ccc(Cl)cc2)CC1 (stereo not drawn)
Read-out: cell-free assay
Tested at: 10 µM
target	inhibition
CHRM2 (Homo sapiens, UniProt P08172)	9.4%
SIGMAR1 (Homo sapiens, UniProt Q99720)	91.6%
HRH2 (Homo sapiens, UniProt P25021)	53.1%
HTR2B (Homo sapiens, UniProt P41595)	97.2%
HRH4 (Homo sapiens, UniProt Q9H3N8)	-17.1%
ADRA1B (Homo sapiens, UniProt P35368)	41%
TMEM97 (Homo sapiens, UniProt Q5BJF2)	83.4%
HRH3 (Homo sapiens, UniProt Q9Y5N1)	26.9%
ADRB2 (Homo sapiens, UniProt P07550)	-11.1%
DRD4 (Homo sapiens, UniProt P21917)	20.4%
ADRA1A (Homo sapiens, UniProt P35348)	12.4%

A few entries again (set 1):
SMILES	nuclear SOX9 intensity
CNCCCC12CCC(c3ccccc31)c1ccccc12	210 % of DMSO
Cc1cc(F)c(Nc2ncnc3cc(OCc4ccccc4)ccc23)cc1O	121 % of DMSO
O=C(Nc1c(Cl)cncc1Cl)c1ccc(OC(F)F)c(OCC2CC2)c1	101 % of DMSO
CC(C)N(CCCCOCC(=O)NS(C)(=O)=O)c1cnc(-c2ccccc2)c(-c2ccccc2)n1	88.8 % of DMSO
CC(C)S(=O)(=O)N[C@H]1Cc2ccc(-c3ccc(F)nc3)cc2C1	98.7 % of DMSO
